Experimental data from different studies.

Structure (SMILES)	target or system	assay	test system	conditions	scale	endpoint	result
CCOC(=O)c1cnc2ccc(-c3cn[nH]c3)cc2c1	Enterovirus D68	viral cytopathic effect	RD, STL-2014-12	–	–	EC50	> 200000 nM
[N-]=[N+]=N[C@]1(CO)O[C@@H](n2ccc(N)nc2=O)[C@@H](F)[C@@H]1O	murine hepatitis virus	viral genome copies, RT-qPCR	DBT-9, A59 ExoN− mutant	–	–	EC50	3 nM
COc1ccc(NC(=O)N2CCCCN3[C@H](CN(C)C)[C@H](c4ccc(C#Cc5ccccc5)cc4)[C@@H]3C2)cc1	Cryptosporidium parvum	parasite growth, high-content microscopy	Iowa (Bunch Grass Farm)	1% FBS	–	EC50	9 nM
COc1ccnc(C(=O)NCC(=O)O)c1O	Daphnia magna	immobilisation, semi-static water exposure	–	48 h	–	EC50	> 10 µg/mL
Cc1cc(OC(C)C)ccc1C(=O)C(C)(C)NC(=O)c1sccc1C	Ustilaginoidea virens	mycelial growth	PSA medium	20 °C, suspension concentrate 400 g/L	–	EC50	0.12 µg/mL
Nc1ncnc2[nH]cnc12	–	binding, equilibrium dialysis LC-MS	–	5 µM, thermostabilized A2AR-BRIL construct	baseline: no-protein control, direction not given	z-scored log2 fold change	1.18
Cc1ccc(N(c2ccc(NC(=O)CN(C)c3ccccc3N3CCCC3=O)cc2)C(C)C)cc1	Plasmodium falciparum	male gamete formation	NF54 stage V gametocytes	48 h	–	EC50	354 nM
COc1ccnc(C(=O)N[C@@H](COC(=O)C(C)C)C(=O)O)c1O	Daphnia magna	immobilisation, semi-static water exposure	–	48 h	–	EC50	> 7.8 µg/mL
Nc1ncnc2c1ncn2[C@@H]1O[C@H](CSCc2ccc3ccccc3c2)[C@@H](O)[C@H]1O	murine hepatitis virus	viral replication	A59	16 h	–	EC50	> 200000 nM
Nc1nc2c(ncn2COCCO)c(=O)[nH]1	human alphaherpesvirus 1	viral replication	HEL, KOS	–	–	EC50	900 nM
FC(F)(F)c1nc(-c2cnc3ccc(-c4ccc(-c5ccccc5)cc4)cc3c2)no1	Enterovirus D68	viral cytopathic effect	RD, STL-2014-12	–	–	EC50	> 200000 nM
COc1ccnc(C(=O)NCCO)c1OCOC(=O)C(C)C	Daphnia magna	immobilisation, semi-static water exposure	–	48 h	–	EC50	1.1 µg/mL
O=P(O)(O)O[C@@H]1[C@H](O)[C@H](O)[C@@H](OP(=O)(O)O)[C@H](OP(=O)(O)O)[C@H]1O	–	binding, equilibrium dialysis LC-MS	–	5 µM, thermostabilized A2AR-BRIL construct	baseline: no-protein control, direction not given	z-scored log2 fold change	-1.06
COc1ccnc(C(=O)N[C@H]2COC(=O)[C@H](Cc3ccccc3)[C@@H](O)[C@H](C)OC2=O)c1O	Daphnia magna	immobilisation, semi-static water exposure	–	48 h	–	EC50	0.545 µg/mL
COC(=O)N[C@H](C(=O)N1CCC[C@H]1c1ncc(-c2ccc(-c3ccc(-c4cnc([C@@H]5CCCN5C(=O)[C@@H](NC(=O)OC)C(C)C)[nH]4)cc3)cc2)[nH]1)C(C)C	human rhinovirus	viral replication	MRC5	–	–	EC50	> 29000 nM

Repeated from above:
Structure (SMILES)	target or system	assay	test system	conditions	scale	endpoint	result
COc1ccnc(C(=O)NCC(=O)O)c1O	Daphnia magna	immobilisation, semi-static water exposure	–	48 h	–	EC50	> 10 µg/mL
Cc1cc(OC(C)C)ccc1C(=O)C(C)(C)NC(=O)c1sccc1C	Ustilaginoidea virens	mycelial growth	PSA medium	20 °C, suspension concentrate 400 g/L	–	EC50	0.12 µg/mL
